Results gathered from unrelated publications.
Every numbered part comes from another study and shows a few of its results, in no order.
Chain of UniProt Q9BVS4 (whole entry, looked up): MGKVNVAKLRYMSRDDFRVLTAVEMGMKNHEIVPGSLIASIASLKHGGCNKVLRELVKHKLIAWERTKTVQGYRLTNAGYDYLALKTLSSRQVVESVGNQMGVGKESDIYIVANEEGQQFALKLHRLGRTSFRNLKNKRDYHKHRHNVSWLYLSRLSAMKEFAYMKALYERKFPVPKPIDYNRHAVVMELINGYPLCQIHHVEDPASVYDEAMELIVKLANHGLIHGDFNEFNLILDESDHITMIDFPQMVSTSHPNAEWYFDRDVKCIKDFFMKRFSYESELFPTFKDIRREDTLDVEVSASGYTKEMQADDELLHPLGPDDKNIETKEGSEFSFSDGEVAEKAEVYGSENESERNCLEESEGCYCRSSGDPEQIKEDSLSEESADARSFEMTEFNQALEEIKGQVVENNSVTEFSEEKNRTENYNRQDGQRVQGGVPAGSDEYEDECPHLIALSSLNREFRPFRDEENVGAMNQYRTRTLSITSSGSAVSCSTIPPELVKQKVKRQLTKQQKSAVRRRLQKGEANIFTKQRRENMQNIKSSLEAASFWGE
Chain of UniProt Q8TDX7 (whole entry, looked up): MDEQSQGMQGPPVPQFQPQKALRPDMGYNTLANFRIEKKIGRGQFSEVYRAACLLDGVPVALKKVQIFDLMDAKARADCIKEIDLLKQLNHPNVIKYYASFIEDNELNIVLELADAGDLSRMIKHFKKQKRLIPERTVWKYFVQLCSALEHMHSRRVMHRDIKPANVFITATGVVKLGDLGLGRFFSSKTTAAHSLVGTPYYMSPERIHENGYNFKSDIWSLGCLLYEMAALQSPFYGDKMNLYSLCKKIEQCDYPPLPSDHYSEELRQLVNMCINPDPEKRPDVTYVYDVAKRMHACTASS
Chain of UniProt Q13555 (whole entry, looked up): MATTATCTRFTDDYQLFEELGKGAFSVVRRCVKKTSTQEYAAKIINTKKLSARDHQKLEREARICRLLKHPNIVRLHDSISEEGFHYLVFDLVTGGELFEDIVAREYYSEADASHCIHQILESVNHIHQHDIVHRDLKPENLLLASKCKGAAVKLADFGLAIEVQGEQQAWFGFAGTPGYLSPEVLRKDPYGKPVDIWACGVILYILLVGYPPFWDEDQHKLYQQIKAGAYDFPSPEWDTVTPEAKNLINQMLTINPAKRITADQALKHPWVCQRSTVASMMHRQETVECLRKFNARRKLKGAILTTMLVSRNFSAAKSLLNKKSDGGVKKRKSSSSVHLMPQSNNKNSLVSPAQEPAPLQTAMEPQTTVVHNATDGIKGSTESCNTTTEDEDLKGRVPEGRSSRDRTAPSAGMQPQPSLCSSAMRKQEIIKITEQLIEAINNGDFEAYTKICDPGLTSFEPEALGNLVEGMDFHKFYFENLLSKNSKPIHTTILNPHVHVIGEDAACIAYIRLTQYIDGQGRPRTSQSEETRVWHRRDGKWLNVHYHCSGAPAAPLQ
Chain of UniProt P27361 (whole entry, looked up): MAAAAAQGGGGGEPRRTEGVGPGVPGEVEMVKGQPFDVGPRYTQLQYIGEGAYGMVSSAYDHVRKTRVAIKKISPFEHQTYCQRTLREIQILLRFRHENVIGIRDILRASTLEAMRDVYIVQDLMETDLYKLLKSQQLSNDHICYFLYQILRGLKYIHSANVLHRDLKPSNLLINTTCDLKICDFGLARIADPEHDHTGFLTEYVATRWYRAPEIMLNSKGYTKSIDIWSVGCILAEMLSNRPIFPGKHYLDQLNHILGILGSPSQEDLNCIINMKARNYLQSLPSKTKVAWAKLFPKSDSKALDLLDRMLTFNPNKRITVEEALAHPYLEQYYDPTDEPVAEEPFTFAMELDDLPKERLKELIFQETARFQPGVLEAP
Chain of UniProt P00519 (whole entry, looked up): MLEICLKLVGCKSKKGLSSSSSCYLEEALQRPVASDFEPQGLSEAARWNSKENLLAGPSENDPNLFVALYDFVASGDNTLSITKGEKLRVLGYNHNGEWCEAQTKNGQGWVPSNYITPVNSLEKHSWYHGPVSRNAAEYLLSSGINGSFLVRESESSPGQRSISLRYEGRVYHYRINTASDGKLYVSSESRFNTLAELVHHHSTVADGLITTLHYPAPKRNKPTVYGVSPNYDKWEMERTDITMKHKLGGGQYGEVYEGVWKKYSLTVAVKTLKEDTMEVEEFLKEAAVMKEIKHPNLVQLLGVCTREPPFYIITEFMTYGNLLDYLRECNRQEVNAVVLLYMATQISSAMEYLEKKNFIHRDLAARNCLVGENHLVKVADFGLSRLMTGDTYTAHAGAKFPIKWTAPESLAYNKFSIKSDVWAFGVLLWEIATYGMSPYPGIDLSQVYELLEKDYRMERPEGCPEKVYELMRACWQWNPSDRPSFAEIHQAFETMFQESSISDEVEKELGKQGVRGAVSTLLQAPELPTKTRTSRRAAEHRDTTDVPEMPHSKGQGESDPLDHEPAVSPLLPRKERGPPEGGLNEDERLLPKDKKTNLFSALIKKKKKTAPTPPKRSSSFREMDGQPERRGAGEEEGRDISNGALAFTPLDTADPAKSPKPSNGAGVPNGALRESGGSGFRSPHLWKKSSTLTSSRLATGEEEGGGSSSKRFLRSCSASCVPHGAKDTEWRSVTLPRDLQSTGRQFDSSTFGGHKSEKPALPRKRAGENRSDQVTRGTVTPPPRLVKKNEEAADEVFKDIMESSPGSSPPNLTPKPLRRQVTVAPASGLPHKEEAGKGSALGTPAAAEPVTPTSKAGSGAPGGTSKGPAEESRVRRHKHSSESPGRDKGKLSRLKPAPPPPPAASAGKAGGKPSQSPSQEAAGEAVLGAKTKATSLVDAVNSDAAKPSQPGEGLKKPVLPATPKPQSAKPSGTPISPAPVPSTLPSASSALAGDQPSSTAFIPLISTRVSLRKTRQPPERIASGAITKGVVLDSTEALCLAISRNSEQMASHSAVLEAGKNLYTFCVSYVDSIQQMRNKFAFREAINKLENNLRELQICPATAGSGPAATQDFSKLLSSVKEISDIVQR
Chain of UniProt Q9BRS2 (whole entry, looked up): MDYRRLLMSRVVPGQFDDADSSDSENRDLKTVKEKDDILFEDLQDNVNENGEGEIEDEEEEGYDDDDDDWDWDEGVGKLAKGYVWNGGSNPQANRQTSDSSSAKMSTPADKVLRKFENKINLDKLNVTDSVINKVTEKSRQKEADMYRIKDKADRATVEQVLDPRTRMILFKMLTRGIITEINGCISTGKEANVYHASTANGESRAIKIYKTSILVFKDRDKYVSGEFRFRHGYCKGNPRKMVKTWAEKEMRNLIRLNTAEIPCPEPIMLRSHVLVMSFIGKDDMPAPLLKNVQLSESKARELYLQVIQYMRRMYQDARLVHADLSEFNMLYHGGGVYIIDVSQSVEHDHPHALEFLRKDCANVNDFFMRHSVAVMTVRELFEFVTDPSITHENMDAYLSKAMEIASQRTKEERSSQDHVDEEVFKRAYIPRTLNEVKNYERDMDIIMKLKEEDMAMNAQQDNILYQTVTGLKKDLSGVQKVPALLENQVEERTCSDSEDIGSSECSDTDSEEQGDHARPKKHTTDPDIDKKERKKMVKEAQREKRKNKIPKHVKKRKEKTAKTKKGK

Series 1
Compound: CS(=O)(=O)N1CCCC(NC(=O)[C@H](CCC2CCCCC2)NC(=O)c2ccc(CNC(=O)c3cnc4ccccn34)cc2)C1 (stereo partly shown)
Effect on: cell-free assay
Method: competition with immobilised ligand
Tested at: 0.1 µM
Endpoint: remaining binding
CAMK2G (Homo sapiens, UniProt Q13555): 86%
FGFR3 (Homo sapiens, UniProt P22607): 100%
PIK3CA (Homo sapiens, UniProt P42336, C420R): 93%
NEK7 (Homo sapiens, UniProt Q8TDX7): 100%
PAK3 (Homo sapiens, UniProt O75914): 100%
MAPK3 (Homo sapiens, UniProt P27361): 67%
Tyrosine-protein kinase ABL1, phosphorylated (ABL1, Homo sapiens, UniProt P00519): 61%
EGFR (Homo sapiens, UniProt P00533, A750P/del747-749): 90%
RIOK1 (Homo sapiens, UniProt Q9BRS2): 73%
LRRK2 (Homo sapiens, UniProt Q5S007): 64%
RIOK2 (Homo sapiens, UniProt Q9BVS4): 100%
RPS6KB1 (Homo sapiens, UniProt P23443): 100%

Series 2
Target: Beta-1 adrenergic receptor (ADRB1, Homo sapiens, UniProt P08588)
Chain of UniProt P08588 (whole entry, looked up): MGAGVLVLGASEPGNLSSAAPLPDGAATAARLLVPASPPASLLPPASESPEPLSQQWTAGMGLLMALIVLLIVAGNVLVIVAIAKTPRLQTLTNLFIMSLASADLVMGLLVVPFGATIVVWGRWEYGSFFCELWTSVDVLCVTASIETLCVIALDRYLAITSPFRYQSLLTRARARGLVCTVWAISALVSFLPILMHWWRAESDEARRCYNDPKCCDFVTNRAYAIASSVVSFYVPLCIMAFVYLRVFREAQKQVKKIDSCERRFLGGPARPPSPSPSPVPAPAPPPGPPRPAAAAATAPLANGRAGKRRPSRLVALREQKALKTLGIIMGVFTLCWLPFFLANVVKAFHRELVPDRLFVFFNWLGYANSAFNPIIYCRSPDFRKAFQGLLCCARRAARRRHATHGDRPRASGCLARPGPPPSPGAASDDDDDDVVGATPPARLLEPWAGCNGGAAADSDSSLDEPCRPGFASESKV
Mode: antagonist
Endpoint: IC50
O=C1c2c(nc(COc3cccc(N4CCOCC4)c3)n2Cc2ccccc2)NCCN1CC1CC1: ≥ 100 µM
Cc1cc(=O)oc2cc(OCC(=O)NC3CCCc4c3[nH]c3ccccc43)ccc12 (stereo not shown): ≥ 100 µM
OC(c1cccc(C(F)(F)F)c1)c1nc(Nc2ccc(N3CCOCC3)cc2)n[nH]1 (stereo not shown): 28.2 µM
COc1cccc(F)c1-c1ncc2c(n1)OCCN(c1cccc(C(F)(F)F)c1)C2=O: ≥ 100 µM
O=C1OC2(c3ccc(O)cc3Oc3cc(O)ccc32)c2cccc(N=C=S)c21: 12.6 µM
COc1ccccc1N1CCN([C@@H]2[C@H](O)[C@H](CO)O[C@@H]2CNC(C)C)CC1: ≥ 100 µM
O=c1c(Cl)c(NC(c2ccccc2)c2cccs2)cnn1-c1ccc(C(F)(F)F)cn1 (stereo not shown): ≥ 100 µM
CCc1ccc([S+](=O)([O-])N2CCN(c3ccccc3OC)CC2)cc1: ≥ 100 µM
COc1ccccc1NC(=O)c1cc2c(ccc3ccccc32)oc1=O: ≥ 100 µM
CCOc1ccc(C(O)Cn2ccn3nc(-c4ccccc4C)cc3c2=O)cc1 (stereo not shown): ≥ 100 µM
CN(c1ccccc1)c1cc(=O)c2ccnc(-c3ccncc3)c2o1: ≥ 100 µM
CN(Cc1ccccc1)Cc1ccccc1OCC(O)CN1CCCCC1 (stereo not shown): ≥ 100 µM
Cc1[nH]c(/C=C2/C(=O)Nc3ccc(F)cc32)c(C)c1C(=O)NC[C@H](O)CN1CCOCC1: ≥ 100 µM

Series 3
Species: human
Matrix: microsomes or S9
Tested at: 2 µM
Time: 0.5 h
Endpoint: remaining compound
COc1ccc(CN(Cc2ccc(OC)cc2)c2ncnc3c2[nH]c(=O)n3[C@H](C)c2cc3ccccc3nc2-c2ccccc2C)cc1: 57.2%
CCCc1noc2nc(CC)cc(C(=O)N(C)Cc3ncon3)c12: 85.6%
CC(=O)CC(CC(C)C)n1nnc(-c2ccccc2)n1 (stereo not shown): 8.46%
Cn1nc(CNC(=O)Cn2nc(C(F)(F)F)c3c2CCC3)c(Cl)c1Cl: 3.08%
O=S(=O)(Nc1cccn2c(C3CCC3)nnc12)c1ccc2c(c1)OCCO2: 63.2%
Cc1ccc(O[C@H]2COCC[C@H]2NC(=O)c2cnn[nH]2)cn1: 86%
Cn1cc(C(=O)Nc2ccc(C#N)cc2)c2ccccc2c1=O: > 100%
O=C(O)c1cccnc1C(=O)OCc1ccccc1: 26.5%
c1ccc2c(c1)CC(CNc1nccc(-n3cccn3)n1)CO2 (stereo not shown): 1.18%
O=C(CN1N=C(c2ccccc2)Cn2c(cc3ccccc32)C1=O)N1CCN2CCCC2C1 (stereo not shown): 7.39%
CCC(=O)N1CCCC1c1nc2ccccc2n1CC(=O)N(c1ccccc1)C(C)C (stereo not shown): 9.23%
O=C(Nc1ccc(Cl)cn1)c1c2c(nc3ccccc13)C(=O)N(C1CCCCC1)C2: 75.5%
O=S(=O)(c1c[nH]c2ncc(Cl)cc12)N1CCn2ncnc2C1: 20.1%
CCN(c1ccc2c(c1)OCO2)c1cc(Cl)nc(Cl)n1: 50.1%
CC(C)(C)c1cc(NC(=O)CSC2=NN/C(=C3\C=c4ccccc4=N3)N2c2ccccc2)on1: 46.7%
Oc1cc(O)c2c(c1)O[C@H](c1ccc(O)c(O)c1)[C@H](O)[C@H]2c1c(O)cc(O)c2c1O[C@H](c1ccc(O)c(O)c1)[C@H](O)C2: 81.1%
Nc1nnc2sc3cc(Br)ccc3n12: 0%

Series 4
Target: Mitogen-activated protein kinase kinase kinase 11 (MAP3K11, Homo sapiens, UniProt Q16584)
Chain of UniProt Q16584 (whole entry, looked up): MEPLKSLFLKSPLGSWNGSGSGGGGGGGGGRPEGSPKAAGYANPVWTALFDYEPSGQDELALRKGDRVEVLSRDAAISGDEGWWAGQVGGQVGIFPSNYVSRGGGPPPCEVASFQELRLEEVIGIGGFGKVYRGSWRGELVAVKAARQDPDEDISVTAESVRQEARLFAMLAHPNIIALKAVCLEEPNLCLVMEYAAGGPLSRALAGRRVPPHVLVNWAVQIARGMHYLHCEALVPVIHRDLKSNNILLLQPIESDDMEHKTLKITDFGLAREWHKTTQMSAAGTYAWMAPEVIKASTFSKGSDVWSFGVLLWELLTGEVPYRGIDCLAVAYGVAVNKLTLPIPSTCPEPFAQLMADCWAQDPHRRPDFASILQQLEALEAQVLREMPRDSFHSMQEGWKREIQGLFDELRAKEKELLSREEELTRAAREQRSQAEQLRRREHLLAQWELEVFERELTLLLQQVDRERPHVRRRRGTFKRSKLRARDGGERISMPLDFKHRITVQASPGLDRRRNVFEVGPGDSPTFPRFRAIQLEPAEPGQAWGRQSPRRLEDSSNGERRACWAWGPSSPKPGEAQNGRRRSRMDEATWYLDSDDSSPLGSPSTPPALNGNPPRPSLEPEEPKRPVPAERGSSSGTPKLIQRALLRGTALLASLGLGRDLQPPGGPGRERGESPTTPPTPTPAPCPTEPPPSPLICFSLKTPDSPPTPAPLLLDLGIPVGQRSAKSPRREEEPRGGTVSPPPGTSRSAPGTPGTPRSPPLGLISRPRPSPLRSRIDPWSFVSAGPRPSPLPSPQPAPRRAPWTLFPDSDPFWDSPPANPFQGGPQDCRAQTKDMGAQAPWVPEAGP
Effect on: enzyme activity
Mode: inhibitor
Tested at: 0.5 µM
Baseline: control
Endpoint: remaining activity
Cc1ccc(NC(=O)c2ccc(CN3CCN(C)CC3)cc2)cc1Nc1nccc(-c2cccnc2)n1: 99.7%
C[S+]([O-])c1ccc(-c2nc(-c3ccncc3)c(-c3ccc(F)cc3)[nH]2)cc1 (stereo not shown): 96.4%
COc1cc2ncnc(N3CCN(C(=O)Nc4ccc(Oc5ccccc5)cc4)CC3)c2cc1OC: 97%
CC(C)[C@H](CO)Nc1nc(Nc2cccc(Cl)c2)c2ncn(C(C)C)c2n1: 40.2%
CCN1/C(=C/C(C)=O)Sc2ccc(OC)cc21: 102%
O=c1cc(N2CCOCC2)oc2c1ccc1ccccc12: 99.2%
CN(C)CCCn1cc(C2=C(c3c[nH]c4ccccc34)C(=O)NC2=O)c2ccccc21: 61%
O=C1NC(=O)/C(=C/c2ccc3nccnc3c2)S1: 97.5%
CCC(=O)Nc1ccc2ncnc(Nc3cccc(Br)c3)c2c1: 97.1%
Cn1cc(/C=C2\C(=O)Nc3ccc(S(N)(=O)=O)cc32)c2ccccc21: 9.89%

For quick reference, copied from above (series 4):
Cc1ccc(NC(=O)c2ccc(CN3CCN(C)CC3)cc2)cc1Nc1nccc(-c2cccnc2)n1: 99.7%
CN(C)CCCn1cc(C2=C(c3c[nH]c4ccccc34)C(=O)NC2=O)c2ccccc21: 61%
CCN1/C(=C/C(C)=O)Sc2ccc(OC)cc21: 102%
O=c1cc(N2CCOCC2)oc2c1ccc1ccccc12: 99.2%
CC(C)[C@H](CO)Nc1nc(Nc2cccc(Cl)c2)c2ncn(C(C)C)c2n1: 40.2%
C[S+]([O-])c1ccc(-c2nc(-c3ccncc3)c(-c3ccc(F)cc3)[nH]2)cc1 (stereo not shown): 96.4%
